Results pooled from the literature.
Each line is one published result; not all experiments were run side by side. ± gives the spread as reported.

| Structure (SMILES) | tested on | assay | test system | conditions | scale | measurement | value |
| --- | --- | --- | --- | --- | --- | --- | --- |
| COc1ccc(/C=C/c2ccc(-c3ccc(C)cn3)nc2)cc1 |  |  | aqueous HEPES buffer | pH 7.4, zinc(II)-saturated form, with: quinine bisulfate reference |  | fluorescence quantum yield | 0.31 |
| Cc1nc(C)c(C=[N+]([O-])C(C)(C)C)nc1C |  |  | Sprague-Dawley rat, both sexes, brain | oral, 45 mg/kg, 10 min |  | concentration | 28200 ng/g |
| CCCC[C@@H]1NC(=O)[C@@H](NC(=O)[C@H](CCC(=O)O)NC(=O)CNC(=O)CN2CCN(CC(=O)O)CCN(CC(=O)O)CCN(CC(=O)O)CC2)CCCCNC(=O)C[C@@H](C(N)=O)NC(=O)[C@H](C(C)C)NC(=O)[C@@H]2CCCN2C(=O)[C@H](CCCNC(=N)N)NC(=O)CNC(=O)[C@H](Cc2c[nH]c3ccccc23)NC(=O)[C@H](CCCNC(=N)N)NC(=O)[C@@H](Cc2ccccc2)NC(=O)[C@H](Cc2c[nH]cn2)NC(=O)[C@H](CCC(=O)O)NC1=O [gallium-67 labelled] |  |  | C57 mice with B16/F1 melanoma | intravenous, 0.037 MBq/mouse, 0.5 h | relative to: tumour over blood | tumour to blood ratio | 7.04 |
| NCCCC[C@H](NC(=O)[C@H](Cc1ccc(O)cc1)NC(=O)[C@H](CCCCN)NC(=O)[C@H](Cc1c[nH]c2ccccc12)NC(=O)[C@H](Cc1ccccc1)NC(=O)[C@H](Cc1ccccc1)NC(=O)Cc1ccc(-c2ccccc2)cc1)C(=O)NCC(=O)N[C@@H](Cc1c[nH]cn1)C(=O)N1CCC[C@H]1C(=O)NCC(=O)NCC(=O)N1CCC[C@H]1C(=O)N[C@@H](CCC(N)=O)C(=O)N[C@@H](CC(=O)O)C(=O)N[C@@H](CC(=O)O)C(=O)N[C@@H](CC(=O)O)C(=O)N[C@@H](CC(=O)O)C(=O)N[C@@H](CC(=O)O)C(=O)N[C@@H](CC(=O)O)C(=O)O |  | Zetasizer |  | 64 µM, self-assembled peptide |  | zeta potential | -32.8 mV |
| CN1CCC(N[C@@H]2CCc3[nH]c4c(C(N)=O)ccc(-c5ccccc5Cl)c4c3C2)CC1 |  |  | mouse, plasma | intravenous, 2 mg/kg |  | MRT(0-inf) | 9.05 h |
| CC[C@H](C)[C@H](NC(=O)[C@@H]1CCCN1C(=O)CNC(=O)[C@H](Cc1ccccc1)NC(=O)[C@H](CC(N)=O)NC(=O)[C@H](CC(N)=O)NC(=O)[C@H](CO)NC(=O)[C@H](CO)NC(=O)[C@H](Cc1c[nH]cn1)NC(=O)[C@@H](NC(=O)[C@H](CC(C)C)NC(=O)[C@H](Cc1ccccc1)NC(=O)[C@H](CC(N)=O)NC(=O)[C@H](C)NC(=O)[C@H](CC(C)C)NC(=O)[C@H](CCCNC(=N)N)NC(=O)[C@H](CCC(N)=O)NC(=O)[C@@H](NC(=O)[C@H](C)NC(=O)[C@@H]1CSSC[C@H](NC(=O)[C@@H](N)CCCCN)C(=O)N[C@@H](CC(N)=O)C(=O)N[C@@H]([C@@H](C)O)C(=O)N[C@@H](C)C(=O)N[C@@H]([C@@H](C)O)C(=O)N1)[C@@H](C)O)C(C)C)C(=O)N[C@@H](CC(C)C)C(=O)N1CCC[C@H]1C(=O)N1CCC[C@H]1C(=O)N[C@H](C(=O)N[C@@H](CC(N)=O)C(=O)N[C@H](C(=O)NCC(=O)N[C@@H](CO)C(=O)N[C@@H](CC(N)=O)C(=O)N[C@H](C(=O)N[C@@H](Cc1ccc(O)cc1)C(N)=O)[C@@H](C)O)C(C)C)[C@@H](C)O |  |  | PBS | 500 µM, 24 h, pH 7.4, with: equimolar insulin | relative to: time zero | loss from soluble fraction | > 37% |
| CC[C@@H](C)[C@@H](NC(=O)[C@@H](C)NC(=O)[C@@H](CCCCN)NC(=O)[C@@H](CC(C)C)NC(=O)[C@@H](CC(C)C)NC(=O)[C@H](NC(=O)[C@@H](CCCCN)NC(=O)[C@@H](CC(C)C)NC(=O)[C@@H](C)NC(=O)[C@@H](CCCCN)NC(=O)[C@@H](CCCCN)NC(=O)[C@@H](CCCCN)NC(=O)[C@@H](C)NC(=O)[C@@H](CCCCN)NC(=O)[C@@H](CO)NC(=O)[C@@H](Cc1ccccc1)NC(=O)[C@H](NC(=O)[C@@H](CCCCN)NC(=O)[C@@H](CC(C)C)NC(=O)[C@@H](Cc1ccccc1)NC(=O)[C@@H](CO)NC(=O)[C@@H](CCCCN)NC(=O)[C@@H](Cc1c[nH]c2ccccc12)NC(=O)[C@@H](CCCCN)NC(C)=O)[C@H](C)O)[C@H](C)O)C(=O)N[C@H](CO)C(=O)N[C@H](CCCCN)C(N)=O |  | RP-HPLC temperature profiling |  | pH 2, 5-80 °C, unit not given | relative to: control peptide | self-association parameter | 5.13 |
| CC(=O)N[C@@H](CC(N)=O)C(=O)NCC(=O)N[C@@H](C)C(=O)N[C@@H](C)C(N)=O |  | 1H NMR | sodium phosphate buffer 50 mM | pH 7.4, 55 °C |  | half-life of Asn form | 3.2 h |
| CC(=O)N[C@H](CCNC(=O)c1cc(NC(=O)c2cc(NC(=O)c3cc(NC(=O)c4nccn4C)cn3C)cn2C)cn1C)C(=O)Nc1cn(C)c(C(=O)Nc2cc(C(=O)Nc3cc(C(=O)Nc4cc(C(=O)NCCCN(C)CCCN[14C](=O)c5cccc([14C](=O)O)c5)n(C)c4)n(C)c3)n(C)c2)n1 |  |  | NSG male mice, LNCaP xenograft, liver | intraperitoneal, 20 nmol per animal, 24 h | relative to: LNCaP-grafted over naive mice | tissue concentration ratio | ~2 fold |
| CC1=C(/C=C/C(=O)N2CCN(C(N)=O)CC2)C(C)(C)CCC1 |  |  | female mice, retina | oral, 120 mg/kg |  | Cmax | 30 nmol/g |
| CC[C@H](C)[C@H](NC(=O)[C@H](Cc1ccccc1)NC(=O)[C@H](CC(=O)O)NC(=O)[C@H](CCCNC(=N)N)NC(=O)[C@H](Cc1ccccc1)NC(=O)[C@H](Cc1ccccc1)NC(=O)[C@H](CCCN)NC(=O)[C@H](CO)NC(=O)[C@H](CC(C)C)NC(=O)[C@H](CCCNC(=N)N)NC(=O)[C@H](CCSC)NC(=O)[C@H](C)N)C(=O)N[C@@H](CCN)C(=O)N[C@@H](CCC(N)=O)C(=O)N[C@@H](CCCNC(=N)N)C(=O)N[C@@H](CCCCN)C(=O)N[C@@H](CCCCN)C(=O)O |  | circular dichroism | 20% TFE in PBS | 200 µM, pH 7.4, 25 °C |  | helicity | 21% |
| Cn1c(=O)oc2ccc(-c3ccc(CC(C#N)NC(=O)C4CNCCCO4)c(F)c3)cc21 (stereo not shown) |  |  | human | oral, 10 mg once daily, treatment-related AE, multiple ascending dose |  | lymphadenopathy incidence | 0% |
| CCCC(CCC)NC(=O)c1ccc(O)c(O)c1 |  |  | male Sprague-Dawley rat, plasma | oral, 200 mg/kg of parent drug |  | Tmax | 0.5 h |
| CN(C)CCn1c2ccc([N+](=O)[O-])cc2c(=O)n1Cc1ccccc1 |  | resazurin | peritoneal macrophages, BALB/c mice | 48 h, 10% FBS |  | CC50 | 178 ± 13.9 µM |
| CC[C@H](C)[C@H](NC(=O)[C@H](CCCCN)NC(=O)[C@H](CS)NC(=O)[C@H](C)NC(=O)[C@H](CC(N)=O)NC(=O)[C@H](CCCNC(=N)N)NC(=O)[C@H](CCCNC(=N)N)NC(=O)[C@H](CC(N)=O)NC(=O)[C@H](CCCNC(=N)N)NC(=O)[C@H](CCCNC(=N)N)NC(=O)[C@H](C)NC(=O)[C@H](CS)NC(=O)[C@H](CO)NC(=O)[C@@H](NC(=O)[C@@H](NC(=O)[C@H](CS)NC(=O)[C@H](CCCCN)NC(=O)[C@@H](N)CCCNC(=N)N)C(C)C)[C@@H](C)CC)C(=O)N[C@@H](CC(C)C)C(=O)N[C@@H](CS)C(=O)N[C@@H](CC(N)=O)C(=O)O |  | LC/MS | PBS | 0.1 mg/mL | relative to: LC peak area | two-disulfide form | 63% |
| Cc1cccc(O[C@H]2CCC[C@@H](C(C)CNCc3ccncc3)C2)c1 (relative stereo) |  |  | C57BL/6 mouse female, brain | oral, 25 mg/kg |  | AUC(0-inf) | 8.82 µg·h/mL |
| CC(=O)N[C@H](CC(=O)O)C(=O)N[C@H](Cc1c[nH]c2ccccc12)C(=O)N[C@H](Cc1ccccc1)C(=O)N[C@H](CCCCN)C(=O)N[C@H](C)C(=O)N[C@H](Cc1ccccc1)C(=O)N[C@H](Cc1ccc(O)cc1)C(=O)N[C@H](CC(=O)O)C(=O)N[C@H](CCCCN)C(=O)N[C@@H](C(=O)N[C@H](C)C(=O)N[C@H](CCC(=O)O)C(=O)N[C@H](CCCCN)C(=O)N[C@H](Cc1ccccc1)C(=O)N[C@H](CCCCN)C(=O)N[C@H](CCC(=O)O)C(=O)N[C@H](C)C(=O)N[C@H](Cc1ccccc1)C(N)=O)C(C)C |  |  | statin-treated high-risk CHD women, plasma | oral, 500 mg daily, day 13, 0 to 8 h, mean, outlier excluded |  | AUC(0-t) | 0.247 µg·h/mL |
| Cc1ccc(/N=N/c2c(O)ccc3ccccc23)c(C)c1 |  |  | rat whole blood extract | 0.2 µg/L, 30 days, -20 °C, long-term storage |  | measured concentration | 0.196 µg/L |
| CC(C)[C@H](NC(=O)CNC(=O)[C@H](CCC(N)=O)NC(=O)[C@H](C)N)C(=O)O |  | LC-MS/MS | human, male, plasma | intravenous, 10 mg/kg three times daily, day 3, first dose, 10 min infusion, geometric mean |  | clearance | 37 L/h/kg |
| N=C(N)NCCC[C@H](NC(=O)[C@@H]1CCCN1C(=O)[C@H](Cc1ccccc1)NC(=O)[C@@H]1CCCN1C(=O)[C@H](Cc1c[nH]cn1)NC(=O)[C@@H](N)Cc1ccccc1)C(=O)O |  |  | Sprague-Dawley rats, male, plasma | oral, 50 mg/kg |  | MRT(0-t) | 0.798 ± 0.171 h |
| C=C(c1ncc(C(=O)O)cn1)c1cc2c(cc1C)C(C)(C)CCC2(C)C |  |  | Sprague-Dawley rat, male | oral, 100 mg/kg, 9 h, sesame oil vehicle |  | blood triglycerides | 290 ± 313 mg/dL |
| CC(C)(Sc1cc[n+]([O-])cc1-c1ccc(C#N)c2ccccc12)C(=O)OC1OC(C(=O)O)C(O)C(O)C1O (stereo not shown) |  |  | adult men, plasma | oral, 15 mg verinurad, moderate renal impairment | relative to: impaired over normal renal function | Cmax ratio | 156% |
| CN1CCC[C@]1(C)/C=C/S(=O)(=O)NC(=O)Nc1c2c(cc3c1CCC3)CCC2 |  |  | human, plasma | oral, 50 mg twice daily, 14 days, multiple ascending dose | relative to: day 14 over day 1 | accumulation ratio AUC(0-tau) | 1.6 |
| O=C(CCc1ccc(CNC(C(=O)OC2CCCC2)C2CCCCC2)cn1)NO (stereo not shown) |  |  | healthy male humans | oral, 20 mg once daily, 7 days, median | relative to: day 7 over day 1 | accumulation ratio AUC | 1.14 |
| N=C(N)NCCC[C@@H]1NC(=O)[C@H](Cc2c[nH]c3ccccc23)NC(=O)[C@@H](CC2CCCCC2)NC(=O)[C@@H]2CCCN2C(=O)[C@@H](NC(=O)CCc2ccccc2)CCCNC1=O |  |  | C57BL/6J mouse, plasma brain | oral, 1 mg/kg single dose |  | MRT(0-last) | 0.75 h |
| CN[C@@H]1[C@H](O)[C@H](NC)[C@H]2O[C@]3(O)[C@H](O[C@@H]2[C@H]1O)O[C@H](C)C[C@@]3(O)CNCc1ccc(OC(F)(F)F)cc1 |  |  | rat | iv, 10 mg/kg |  | volume of distribution | 1.13 L/kg |
| CN(C)CCCSC(=S)N1CCN(C(=O)/C=C/c2coc3ccc(F)cc3c2=O)CC1 | tomato spotted wilt virus | viral infection, half-leaf method | Nicotiana glutinosa | 500 µg/mL |  | inactivation effect | 72.8% |
| CC1=CC(C)=[N+]2C1=Cc1ccc(CCC(=O)N3CCN(C(=O)c4cc(Cc5n[nH]c(=O)c6ccccc56)ccc4F)CC3)n1[B-]2(F)F |  |  | athymic nude NU/J mouse, whole blood | intravenous, 2.5 mg/kg |  | beta half-life | 1.47 h |

For quick reference, copied from above:
| Structure (SMILES) | tested on | assay | test system | conditions | scale | measurement | value |
| --- | --- | --- | --- | --- | --- | --- | --- |
| CN1CCC[C@]1(C)/C=C/S(=O)(=O)NC(=O)Nc1c2c(cc3c1CCC3)CCC2 |  |  | human, plasma | oral, 50 mg twice daily, 14 days, multiple ascending dose | relative to: day 14 over day 1 | accumulation ratio AUC(0-tau) | 1.6 |
| CN(C)CCn1c2ccc([N+](=O)[O-])cc2c(=O)n1Cc1ccccc1 |  | resazurin | peritoneal macrophages, BALB/c mice | 48 h, 10% FBS |  | CC50 | 178 ± 13.9 µM |
| CC(=O)N[C@@H](CC(N)=O)C(=O)NCC(=O)N[C@@H](C)C(=O)N[C@@H](C)C(N)=O |  | 1H NMR | sodium phosphate buffer 50 mM | pH 7.4, 55 °C |  | half-life of Asn form | 3.2 h |
